# Measured values pooled from the literature.
# Lines come from different studies, so protocols differ. ± gives the spread as reported.
SMILES,assay,system,setting,scale,endpoint,value
CCCCCCOC(=O)Cc1c(C)n(C(=O)c2ccc(Cl)cc2)c2ccc(OC)cc12,hot plate test,BALB/c mice,"50 mg/kg, 30 min",,latency of nociceptive response,13.7 ± 1.37 s
CC(C)(CCCC/C=C/CCCCCC(C)(C)C(=O)O)C(=O)O,,"rhesus monkey, spontaneous hyperlipidemia","20 mg/kg, 2 weeks",baseline: baseline,reduction in plasma ApoB100,20.9%
NC(=O)C[C@H](N)C(=O)N1CCC[C@H]1C(=O)NCC(=O)NCC(=O)O,"diketopiperazine formation, Arrhenius plot, ESI-MS",1-propanol,"70, 80, 90 °C, 0.5% acetic acid",,ΔG‡ at 298.15 K,22.5 ± 0.478 kcal/mol
C[C@H](NC(=O)COC(=O)[C@H](C)NC(=O)CO)C(=O)O,,water,"pH 3, 25 °C",,depolymerization rate constant,0.001 h⁻¹
Cc1nc(C)c(C=[N+]([O-])C(C)(C)C)nc1C,"Western blot, refers to: TFAM","MPTP mouse model, substantia nigra cytosol",10 mg/kg,,increase in protein level,7.73%
COc1cccc(OCCN2CCC[C@H](CN3CCc4cc(OC)c(OC)cc4CC3=O)C2)c1,,"VTA dopamine neurons, stress-naive female mice","intraperitoneal, 1 mg/kg",baseline: baseline,firing rate,no effect
Nc1ccc(C(=O)NN=Cc2ccc(OCC(=O)Nc3ccc(Cl)cc3)cc2)cc1,"ABTS radical scavenging, ABTS",,"concentration not given, 6 min",,inhibition,80.2%
CC(CCC(=O)NCc1ccc(C(=O)NO)cc1)C1CCC2C3C(O)CC4CC(O)CCC4(C)C3CCC12C (stereo not drawn),immunoblot,"PCK rats, liver",dose not given,baseline: untreated,acetylated α-tubulin level,increased
NC(=O)CC[C@H](N)C(=O)N1CCC[C@H]1C(=O)NCC(=O)NCC(=O)O,"diketopiperazine formation, Arrhenius plot, ESI-MS",1-propanol,"70, 80, 90 °C, 0.5% acetic acid",,ΔG‡ at 298.15 K,22 ± 2.63 kcal/mol
COc1ccc(C2CC(c3ccc(C)cc3)=Nc3ccccc3S2)cc1OC (stereo not drawn),,"Wistar rat, STZ-induced diabetes, serum","20 mg/kg, 28 days",,ALT (SGPT),20.1 ± 2.12 IU/L
CC(=O)N[C@@H](CCCNC(=N)N)C(=O)NCCOCCOCC(=O)N[C@H](C)C(=O)N1CCC[C@H]1B(O)O,plasma clot lysis,normal human plasma,"50 µM, 72 h, 29 °C, at half lysis, with: uPA",,reduction of clot lysis time,7%
C[C@H](N)C(=O)N1CCC[C@H]1C(=O)NCC(=O)NCC(=O)O,"diketopiperazine formation, Arrhenius plot, ESI-MS",1-propanol,"70, 80, 90 °C, 0.5% acetic acid",,ΔG‡ at 298.15 K,22.5 ± 0.956 kcal/mol
CC[C@H](C)[C@H](NC(=O)[C@H](CCCCN)NC(=O)[C@H](CC(N)=O)NC(=O)CNC(=O)[C@@H](NC(=O)[C@H](C)NC(=O)[C@H](CCCNC(=N)N)NC(=O)[C@H](CC(C)C)NC(=O)[C@H](CCCCN)NC(=O)[C@H](CCCCN)NC(=O)[C@H](CCCCN)NC(=O)[C@H](C)NC(=O)[C@H](CCCCN)NC(=O)[C@@H]1CSSC[C@H](NC(=O)[C@H](CCCNC(=N)N)NC(=O)CN)C(=O)N[C@@H](CC(N)=O)C(=O)N[C@@H](CC(C)C)C(=O)N[C@@H](CC(C)C)C(=O)N1)C(C)C)C(=O)N[C@@H](CCCCN)C(=O)N[C@@H](CCC(=O)O)C(=O)N[C@H](C(=O)N[C@@H](CCCCN)C(=O)N[C@@H](CC(N)=O)C(=O)N[C@H](C(=O)N[C@H](C(=O)N[C@@H](Cc1ccccc1)C(=O)N[C@@H](CC(N)=O)C(=O)N[C@@H](CCCNC(=N)N)C(=O)O)C(C)C)C(C)C)[C@@H](C)CC,refers to: IL-1β,"BALB/c mice, CLP-induced sepsis, serum and lung","intraperitoneal, 5 mg/kg, 12 h post-surgery",baseline: vehicle,cytokine level,decreased
C=C(c1cc(F)c(C(=O)O)c(F)c1)c1cc2c(cc1C)C(C)(C)CCC2(C)C,"RNA sequencing, refers to: Sfrp5","rat, brain","dose not given, 24 h",baseline: vehicle,log2 fold change,-0.27
COc1ccc2c(c1)c(CC(=O)OCOC(C)=O)c(C)n2C(=O)c1ccc(Cl)cc1,hot plate test,BALB/c mice,"75 mg/kg, 30 min",,latency of nociceptive response,15.7 ± 1.24 s
CC(=O)Nc1ccc(OC(=O)CCC(=O)[O][Pt-2]23([O]C(=O)CCC(=O)Oc4ccc(NC(C)=O)cc4)([NH2+][C@@H]4CCCC[C@H]4[NH2+]2)[O]C(=O)C(=O)[O]3)cc1,,"BALB/c mouse, 4T1 lung metastasis","dose not given, day 16",,lung metastatic nodules,decreased
Clc1ccc(NN=C(c2ccccc2)c2ccccn2)nc1,,"BALB/c mouse, orthotopic 4T1 mammary tumour",dose not given,baseline: vehicle,increase in life span,18%
CC(C)(O)c1ccc(N2Cc3c(ccnc3-c3ccc(F)cc3OCC(F)(F)F)C2=O)cc1,,"Gaucher disease mouse model, brain","10 mg/kg, single dose",baseline: vehicle,glucosylceramide level,55 ± 2%
COc1cc2c(NC3CCN(C(C)C)CC3)cc(N3CCOCC3)nc2cc1OCCCN1CCCC1,synaptic transmission,"5xFAD mice, dentate granule cells","dose not given, chronic treatment",,sEPSC amplitude,no effect
CCc1nnc(NS(=O)(=O)c2ccc(NC(=S)NC(=O)/C=C/c3ccc(F)cc3)cc2)s1,,"SK-N-AS xenograft, athymic nude mice","intraperitoneal, 10 and 20 mg/kg daily, 18 days",baseline: control,tumour weight,35 to 40%
CCOC(=O)c1cc2c(N)c(C(=O)OC)sc2nc1C,,Sprague-Dawley rats,"subcutaneous, dose not given",baseline: vehicle,non-urea solute excretion,no effect
CC(=O)N[C@@H](CC(N)=O)C(=O)NCC(=O)N[C@@H](CCCNC(=N)N)C(=O)N[C@@H](C)C(N)=O,1H NMR,sodium phosphate buffer 50 mM,"pH 7.4, 46 °C",,rate constant succinimide to α-Asp,0.66 h⁻¹
COc1c2c(cc3oc(CO)cc(=O)c13)O[C@H](C(C)(C)O)C2,analgesia,mouse,"oral, 2 mg/kg, 1 h",,hot plate latency,14 ± 1.75 s
CCCCCCCCCn1cc(C(N)(CO)CO)nn1,,"APP/PS1 mouse, cortical, hippocampal microglia",dose not given,,ceramide level,no effect
CC(C)c1cnc(-c2cc(Cl)ccc2F)cc1Nc1ccncc1C(=O)NC(CO)CO,"SMAD2/3 phosphorylation, flow cytometry","human patients, peripheral monocytes","150 to 500 mg, 1 to 4 h, single and multiple doses, monotherapy",,inhibition,30 to 94%
N[C@@H](CCC(=O)N[C@@H](CS[Se]Cc1ccc(-c2cc(C(F)(F)F)nn2-c2ccc(S(N)(=O)=O)cc2)cc1)C(=O)NCC(=O)O)C(=O)O,,"nude mouse, 1205 Lu xenograft","i.p., 0.127 µmol alternate days, 4 weeks",baseline: vehicle,decrease in tumour volume,≤ 70%
Cc1ccc(S(=O)(=O)N(CCc2nnc(S)n2N)c2ccc(Cl)cc2)cc1,granulation tissue formation,cotton pellet model,200 mg/kg,,inhibition,33.2%
O=C(NCCCCc1ccccc1)n1c(=O)oc2cc(-c3ccc(F)cc3)ccc21,,"mouse, lung","intraperitoneal, 10 mg/kg, 3 h",,lung long-chain ceramide levels,no effect
CCCCCCCCCCCCCCCC(=O)N[C@@H](CCC(=O)NCCCC[C@H](NC(=O)[C@H](CC(=O)O)NC(=O)[C@H](CO)NC(=O)[C@@H](NC(=O)[C@H](Cc1ccccc1)NC(=O)[C@@H](NC(=O)CNC(=O)[C@H](CCC(N)=O)NC(=O)[C@H](CO)NC(=O)[C@@H](N)Cc1c[nH]cn1)[C@@H](C)O)[C@@H](C)O)C(=O)N[C@@H](CO)C(=O)N[C@@H](CCC(=O)O)C(=O)N[C@@H](Cc1ccc(O)cc1)C(=O)N[C@@H](CC(C)C)C(=O)N[C@@H](CC(=O)O)C(=O)N[C@@H](CO)C(=O)N[C@@H](CCC(=O)O)C(=O)N[C@@H](CCCNC(=N)N)C(=O)N[C@@H](C)C(=O)N[C@@H](CCCNC(=N)N)C(=O)N[C@@H](CC(=O)O)C(=O)N[C@@H](Cc1ccccc1)C(=O)N[C@H](C(=O)N[C@@H](C)C(=O)N[C@@H](Cc1c[nH]c2ccccc12)C(=O)N[C@@H](CC(C)C)C(=O)N[C@@H](CCC(=O)O)C(=O)N[C@@H](C)C(=O)NCC(=O)NCC(=O)O)C(C)C)C(=O)O,,diet-induced obese mouse,"subcutaneous, 10 nmol/kg daily, end of treatment",,cumulative food intake,53 g
CC(C)[C@H](NC(=O)CN)C(=O)N[C@@H](CCCCN)C(=O)NCC(=O)N[C@@H](CC(=O)O)C(=O)N[C@@H](CCCCN)C(=O)NCC(=O)N[C@@H](CC(N)=O)C(=O)N1CCC[C@H]1C(=O)NCC(=O)N[C@@H](Cc1c[nH]c2ccccc12)C(=O)N1CCC[C@H]1C(=O)NCC(=O)N[C@@H](C)C(=O)N1CCC[C@H]1C(=O)O,,"bovine aortic endothelial cells, bovine","100 µg/mL coating, peptide-coated plates",baseline: input cells,cell adhesion,0.8%
C=C(c1ncc(C(=O)O)cn1)c1cc2c(cc1C)C(C)(C)CCC2(C)C,"RNA sequencing, refers to: Alb mRNA","rat, brain","dose not given, 24 h, single dose",baseline: vehicle,log2 fold change,-0.46
CC(=O)[O-].O.O.O.O.[Co+2].[O-]c1ccc(Br)cc1C=NCCN1CCOCC1,DPPH radical scavenging,,240 µM,,inhibition,70.1%
COc1cc(O)c(Cl)cc1/C=C/C(=O)c1ccc(C(F)(F)F)cc1,"immunofluorescence, refers to: ZO-1","mouse LPS acute lung injury, lung","po, dose not given",,protein level,increased
C[C@@H](O)[C@@H]1NC(=O)[C@H](CCCCN)NC(=O)[C@@H](Cc2ccc(NC(N)=O)cc2)NC(=O)[C@H](Cc2ccc(NC(=O)[C@@H]3CC(=O)NC(=O)N3)cc2)NC(=O)[C@H](NC(=O)[C@H](Cc2ccc(Cl)cc2)NC(=O)CN2CCN(CC(=O)O)CCN(CC(=O)O)CCN(CC(=O)O)CC2)CSSC[C@@H](C(=O)N[C@H](Cc2ccc(O)cc2)C(N)=O)NC1=O [gallium-68 labelled],dynamic PET/CT,neuroendocrine tumour patients,20 to 30 min post-injection,,highest lesion SUVmax,≤ 50
COc1ccc(C2CC(c3ccc(C)cc3)=Nc3ccccc3S2)cc1 (stereo not drawn),,"rat, normal, overnight fasted","oral, 10 mg/kg, 60 min, oral glucose tolerance test, with: glucose 3 g/kg oral",,blood glucose,120 ± 4.97 mg/dL
COc1c2c(cc3oc(COC4OC(CO)C(O)C(O)C4O)cc(=O)c13)OC(C(C)(C)O)C2 (stereo not drawn),analgesia,mouse,"oral, 4 mg/kg, 2 h",,hot plate latency,12.4 ± 1.31 s
CSCC[C@H](NC(=O)[C@H](CC(C)C)NC(=O)CNC(=O)[C@H](Cc1ccccc1)NC(=O)[C@H](Cc1ccccc1)NC(=O)[C@H](CCC(N)=O)NC(=O)[C@H](CCC(N)=O)NC(=O)[C@@H]1CCCN1C(=O)[C@H](CCCCN)NC(=O)[C@@H]1CCCN1C(=O)[C@@H](N)CCCNC(=N)N)C(N)=O,"flow cytometry, refers to: CD31+CD133+CD309+","diabetic mice, hindlimb ischemia, blood","intravenous, 2.5 nmol/kg, 3 days",baseline: PBMCs,endothelial progenitor cells,0.06 ± 0.03%
N#Cc1cccc(-c2ccc(=O)n(Cc3cccc(-c4ncc(OCC5CCN(CC(=O)NCCOCCNc6ccc7c(c6)C(=O)N(C6CCC(=O)NC6=O)C7=O)CC5)cn4)c3)n2)c1 (stereo not drawn),immunohistochemistry,"BALB/c nude mice, Hs746T xenograft","oral, 40 mg/kg",,c-MET level,inhibited
C[C@@H](N)C1CCN(S(=O)(=O)c2cccc3cnccc23)CC1,,"spontaneously hypertensive rat, transient MCAO","intraperitoneal, 10 mg/kg, scale 0-2",direction not given,hemorrhage score,0.43
C=CC[C@H]1OC(=O)CCNC(=O)[C@H](C)N(C)C(=O)[C@H]([C@@H](C)CC)N(C)C(=O)[C@H]([C@@H](C)CC)NC(=O)[C@@H]2[C@@H](C)CCN2C1=O,"immunohistochemistry, refers to: p-PDGFR-β","mouse bile duct ligation fibrosis, liver","5 to 10 mg/kg/day, 8 days from day 6",,protein phosphorylation,decreased
C[C@@H](NC(=O)[C@@H](Cc1ccccc1)NC(=O)[C@@H](Cc1c[nH]cn1)NC(=O)[C@@H](Cc1ccc(O)cc1)NC(=O)[C@@H](CCC(=O)O)NC(=O)[C@@H](CO)NC(=O)[C@H](N)CCC(N)=O)C(=O)O,,"rabbit, AT1R autoantibody-immunised hypertension","iv, 1 mg/kg, 90 min, 6 weeks immunisation",,mean arterial pressure,82 ± 6 mmHg
O=C([O-])CN1CCN(CC(=O)[O-])CCN(CC(=O)NC[C@H]2CC[C@H](C(=O)N[C@H](Cc3cnc4ccccc4c3)C(=O)NCCCC[C@H](NC(=O)N[C@@H](CCC(=O)O)C(=O)O)C(=O)O)CC2)CCN(CC(=O)[O-])CC1.[64Cu+2],,"prostate cancer patients, biopsy cores","dose not given, above 66 CPM cut-off",,false-positive cores,10.9%
Cc1cc(N)c2ccccc2[n+]1CCCCCCCCCCCCCC[n+]1c(C)cc(N)c2ccccc21,,"NOD/SCID mice, NB12 xenograft, dissociated tumour cells","dose not given, 10 days",,sphere-forming cells,decreased
COc1cc(Cn2ccc3cc(C(=O)NCC45CC6CC(CC(C6)C4)C5)ccc32)ccc1C(=O)NO,PET/CT,"5xFAD mouse, brain","dose not given, with: [11C]PBR28",baseline: vehicle-treated 5xFAD,decrease of TSPO PET signal,~41%
CCCCCC(O)C=CC1OC2OC(C2F)C1CC=CCCCC(=O)O (stereo not drawn),"platelet aggregation, agonist, light transmission aggregometry",human platelet-rich plasma,,,Emax,77 ± 13.1%

# Repeated from above:
SMILES,assay,system,setting,scale,endpoint,value
CCOC(=O)c1cc2c(N)c(C(=O)OC)sc2nc1C,,Sprague-Dawley rats,"subcutaneous, dose not given",baseline: vehicle,non-urea solute excretion,no effect
COc1cccc(OCCN2CCC[C@H](CN3CCc4cc(OC)c(OC)cc4CC3=O)C2)c1,,"VTA dopamine neurons, stress-naive female mice","intraperitoneal, 1 mg/kg",baseline: baseline,firing rate,no effect
COc1c2c(cc3oc(COC4OC(CO)C(O)C(O)C4O)cc(=O)c13)OC(C(C)(C)O)C2 (stereo not drawn),analgesia,mouse,"oral, 4 mg/kg, 2 h",,hot plate latency,12.4 ± 1.31 s
CCCCCC(O)C=CC1OC2OC(C2F)C1CC=CCCCC(=O)O (stereo not drawn),"platelet aggregation, agonist, light transmission aggregometry",human platelet-rich plasma,,,Emax,77 ± 13.1%
